Results of several laboratories.
Each numbered part is a random draw from the data of one study; scales do not carry over between parts. Values joined by “and” are separate records of one study, mostly repeats; a detail may differ. Changes are numbered by the printed parent chain.

Set 1 — technique: universal PBM; form: double-stranded DNA, one strand shown; medium: in vitro; tested at: not given; reading: higher = stronger binding; quantity: E-score
Target: Sal-like protein 4, full length isoform B (SALL4, Homo sapiens, UniProt Q9UJQ4-2, residues 1-616)
Notes: 8-mer, flanks averaged, mean of replicates
Residues (chain): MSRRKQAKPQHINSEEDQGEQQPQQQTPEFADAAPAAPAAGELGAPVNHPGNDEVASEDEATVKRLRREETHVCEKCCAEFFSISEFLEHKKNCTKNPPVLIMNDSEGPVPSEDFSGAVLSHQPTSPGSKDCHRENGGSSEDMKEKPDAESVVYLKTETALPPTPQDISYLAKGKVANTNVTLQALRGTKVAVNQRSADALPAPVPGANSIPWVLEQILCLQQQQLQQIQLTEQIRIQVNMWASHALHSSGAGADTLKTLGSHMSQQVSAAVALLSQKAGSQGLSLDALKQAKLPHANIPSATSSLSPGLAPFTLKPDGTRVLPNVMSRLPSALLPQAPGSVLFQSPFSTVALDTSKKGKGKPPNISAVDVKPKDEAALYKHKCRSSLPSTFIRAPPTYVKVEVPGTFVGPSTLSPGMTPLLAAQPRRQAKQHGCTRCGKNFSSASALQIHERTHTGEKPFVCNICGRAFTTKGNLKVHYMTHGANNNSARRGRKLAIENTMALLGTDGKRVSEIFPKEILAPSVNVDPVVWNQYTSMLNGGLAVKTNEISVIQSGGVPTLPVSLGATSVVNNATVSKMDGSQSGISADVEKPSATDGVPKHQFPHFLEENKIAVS
TGCCAGAA: -0.0384
CGCGCCAC: -0.161
GGCATCTA: 0.00085
CCCGATCA: -0.169
GGGCTATA: -0.00342

Set 2 — target: CCNB1, cyclin fold, Cln2 fusion (human); technique: yeast growth competition, sequencing; medium: yeast; notes: weak parent motif; baseline: not given; reading: higher = stronger binding; quantity: normalised enrichment score
Parent: SLBP docking peptide (human); ARYKRKLLINDFG
ARYKRKLLINAFG [D11A]: 1.16
ARYKRKLLINDEG [F12E]: 0.901
ARYKRKLLINDFD [G13D]: 0.267
ARYKRKLHINDFG [L8H]: 0.4

Set 3 — technique: RNA Bind-n-Seq; form: RNA; medium: in vitro; tested at: not given; baseline: input RNA pool; reading: higher = stronger binding; quantity: bound/input enrichment
Target: RING finger protein unkempt homolog, zinc fingers 1-6, GST-SBP tag (UNK, Homo sapiens, UniProt Q9C0B0, residues 30-357)
Chain of UniProt Q9C0B0 (30-357, looked up): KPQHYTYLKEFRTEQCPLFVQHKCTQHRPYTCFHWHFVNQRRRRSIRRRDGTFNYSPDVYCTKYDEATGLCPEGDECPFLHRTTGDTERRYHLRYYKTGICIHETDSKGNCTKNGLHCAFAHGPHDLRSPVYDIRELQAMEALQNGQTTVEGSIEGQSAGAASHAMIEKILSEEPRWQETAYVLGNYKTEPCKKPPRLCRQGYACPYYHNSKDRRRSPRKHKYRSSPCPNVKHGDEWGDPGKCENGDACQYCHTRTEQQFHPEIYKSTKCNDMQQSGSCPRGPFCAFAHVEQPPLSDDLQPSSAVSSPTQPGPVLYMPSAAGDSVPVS
Notes: RNA with constant flanks, human and mouse sites, ends assumed
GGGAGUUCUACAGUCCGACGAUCUGUCCAGGUUGCUACAAGAUCACCACGGUUUUCAGCCAUGCUCAGACAGUGGUUCUUUGUGUAGGUUGUUCAACAGUGUUGUGCCAGCCUACAGGAGGAAAGGCCAGACUCACAGAAGGGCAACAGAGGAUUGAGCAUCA: 0.11 ratio
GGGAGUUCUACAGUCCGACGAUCGGGCAGGCUACUUUUUGGAGCAUCUGGCUUUCAAGGGAACAAAGAAUCGGCCUGGCAGUGCCCUGGAGAAGGAGGUGGAGAGCAUGGGGGCCCAUCUUAAUGCCUACAGCACCCGGGAGCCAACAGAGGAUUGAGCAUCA: 0.2 ratio
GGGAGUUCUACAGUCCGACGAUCUGCUUGUGCCCCUUGGGUUCUCUUUCAUUUUUUCUUUUUCUUUCUAUUUUUUUUCCGGUUGGGGGUGGGAGGGUUGGAUCGAACAGCCAGAGGGCCCUAGAGUUCCAUGCAUCUAAUUUACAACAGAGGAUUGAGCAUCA: 1.7 ratio
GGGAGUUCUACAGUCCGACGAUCAAGAUUUUAGAAGAAUUUAGGAAAACACAACAGACAUCCCCUGACAAGGUGGAUUAUGAAUAUAGUGAACUACUCUUAUAUCAGAAUCAAGUUCUUCGGGAAGCAGGUCUCUAUAGAGAACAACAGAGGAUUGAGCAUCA: 1.56 ratio
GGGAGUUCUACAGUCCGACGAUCGAUCGUCAAUCGAUGUAGGAGGGCAGUGGUCUUGGGUUGAGUCAGAAAGCCUGGGAGGAAACUAGAGAGGAAGCCAGCCAGGACGUGACACUCCUUCAUGGUGUCUGCUUCAGCUCCUACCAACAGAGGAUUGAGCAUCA: 0.111 ratio

Mixed results
PhoQ, residues 284 288 289 292 302 303 AEGLLW
fold induction (PhoP, residues 12 14 15 18 19 LWHCS (Escherichia coli, UniProt P23836); Sort-seq, measured: YFP reporter; E. coli; PhoQ-PhoP variant library, added: 10 µM Mg2+; baseline: high Mg2+ state, higher = stronger signaling): 7.76 and 8.21

A few entries again (set 2):
ARYKRKLHINDFG [L8H]: 0.4
ARYKRKLLINDFD [G13D]: 0.267
ARYKRKLLINAFG [D11A]: 1.16
